{"data": "Measurements pooled from the literature", "note": "Protocols differ between the studies behind these lines. “And” joins repeats or separate records; there may be more than shown. ± gives the spread as reported.", "UniProt P06276, sequence (whole entry, looked up)": "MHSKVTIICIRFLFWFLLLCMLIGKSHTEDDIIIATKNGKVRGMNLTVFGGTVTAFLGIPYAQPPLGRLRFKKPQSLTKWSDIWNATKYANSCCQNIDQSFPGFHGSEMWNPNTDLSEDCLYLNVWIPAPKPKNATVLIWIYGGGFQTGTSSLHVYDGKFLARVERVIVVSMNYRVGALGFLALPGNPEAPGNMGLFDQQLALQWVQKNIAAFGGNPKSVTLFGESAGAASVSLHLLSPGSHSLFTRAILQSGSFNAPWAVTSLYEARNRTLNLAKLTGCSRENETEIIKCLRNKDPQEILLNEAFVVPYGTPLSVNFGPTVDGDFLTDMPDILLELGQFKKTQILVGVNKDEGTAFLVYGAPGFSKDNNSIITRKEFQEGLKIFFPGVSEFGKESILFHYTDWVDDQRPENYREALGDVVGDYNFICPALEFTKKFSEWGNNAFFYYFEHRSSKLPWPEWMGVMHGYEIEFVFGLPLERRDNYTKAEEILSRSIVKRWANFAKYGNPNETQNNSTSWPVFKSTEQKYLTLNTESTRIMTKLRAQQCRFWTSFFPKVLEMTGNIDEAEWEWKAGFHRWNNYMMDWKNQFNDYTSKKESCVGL"}
{"SMILES": "CC/C(=C(\\c1ccccc1)c1ccc(OCCN(C)C)cc1)c1ccccc1", "system": "CD-1 mouse, male, plasma", "setting": "intraperitoneal, 30 mg/kg", "quantity": "Tmax", "value": "6 h"}
{"SMILES": "O=C(O)CCCOc1ccc(F)cc1-c1cc(-c2ccccc2C(F)(F)F)n(-c2ccccc2)n1", "assay": "measured: CRE", "system": "Crl:CD(SD) rats, male, blood", "setting": "iv, 25 µg/kg, 14 days", "quantity": "blood chemistry", "value": "0.37 ± 0.03 mg/dL"}
{"SMILES": "O=[N+]([O-])c1cc2c3c(ccc2c2ccccc12)[C@@H](O)[C@H](O)C=C3", "assay": "measured: adenoma mammary tumours", "system": "female Sprague-Dawley rats", "setting": "intramammary, 12.3 µmol per rat, up to 32 weeks", "quantity": "tumours per rat", "value": "0.17 ± 0.67"}
{"SMILES": "C[C@@H](NC(=O)N1C(=O)[C@H](Cc2ccnc(N)c2)[C@H]1C(=O)O)C1CCCCC1", "system": "healthy Chinese adult volunteers", "setting": "continuous intravenous infusion, dose not given, 5.0 days, CTCAE 5.0, all doses", "quantity": "infusion site pain", "value": "0%"}
{"SMILES": "CC(C)(C)c1cc(-n2nc3ccccc3n2)c(O)c(C(C)(C)C)c1", "system": "human aged 2-3 years", "setting": "concentration not given, sunscreen, 95th percentile", "quantity": "daily dermal exposure dose", "value": "6.4 ng/kg/day"}
{"SMILES": "c1csc(-c2ccc(-c3cccs3)s2)c1", "system": "C57BL/6J mice, diet-induced obese", "setting": "intraperitoneal, 5 mg/kg daily, 14 days", "scale": "relative to: vehicle", "quantity": "food intake", "value": "no effect"}
{"SMILES": "C[N+](C)(CCCCCC[N+](C)(C)CCCN1C(=O)c2cccc3cccc(c23)C1=O)CCCN1C(=O)c2cccc3cccc(c23)C1=O", "target or system": "Plasmodium falciparum", "system": "3D7", "quantity": "IC50", "value": "100 nM"}
{"SMILES": "CC[C@H](C)[C@H](NC(=O)[C@H](CC(C)C)NC(=O)[C@H](Cc1c[nH]c2ccccc12)NC(=O)[C@H](CCC(N)=O)NC(=O)[C@@H](NC(=O)[C@H](Cc1ccccc1)NC(=O)[C@H](C)NC(=O)[C@H](CCCCNC(=O)COCCOCCNC(=O)COCCOCCNC(=O)CC[C@H](NC(=O)CCCCCCCCCCCCCCCCCCC(=O)O)C(=O)O)NC(=O)[C@H](CCC(N)=O)NC(=O)[C@H](C)NC(=O)[C@@H](NC(=O)[C@H](CCCCN)NC(=O)[C@H](CC(=O)O)NC(=O)[C@H](CC(C)C)NC(=O)C(C)(C)NC(=O)[C@@H](NC(=O)[C@H](CO)NC(=O)[C@H](Cc1ccc(O)cc1)NC(=O)[C@H](CC(=O)O)NC(=O)[C@H](CO)NC(=O)[C@@H](NC(=O)[C@H](Cc1ccccc1)NC(=O)[C@@H](NC(=O)CNC(=O)[C@H](CCC(=O)O)NC(=O)C(C)(C)NC(=O)[C@@H](N)Cc1ccc(O)cc1)[C@@H](C)O)[C@@H](C)O)[C@@H](C)CC)[C@@H](C)CC)C(C)C)C(=O)N[C@@H](C)C(=O)NCC(=O)NCC(=O)N1CCC[C@H]1C(=O)N[C@@H](CO)C(=O)N[C@@H](CO)C(=O)NCC(=O)N[C@@H](C)C(=O)N1CCC[C@H]1C(=O)N1CCC[C@H]1C(=O)N1CCC[C@H]1C(=O)N[C@@H](CO)C(N)=O", "system": "human, plasma", "setting": "subcutaneous, 10 mg, week 8, geometric mean", "quantity": "Vz/F", "value": "6.04 L"}
{"SMILES": "CC(=O)c1c(C)c2cnc(Nc3ccc(C4CCN(CCS(C)(=O)=O)CC4)cn3)nc2n(C2CCCC2)c1=O", "system": "human patients, plasma", "setting": "oral, 100 mg twice daily, day 21 multiple doses, added: fulvestrant", "quantity": "AUC(0-t)", "value": "1490 ng·h/mL"}
{"SMILES": "COc1ccc(-c2c(-c3ccc(C#N)c(F)c3)nc(N3CCC(N)CC3)n(C)c2=O)cc1F", "assay": "measured: Hypokalemia", "system": "human patients", "setting": "oral, dose not given, dose escalation, NG", "quantity": "serious adverse event incidence", "value": "2%"}
{"SMILES": "Clc1cc(Cl)c(-c2ccccc2)cc1Cl", "system": "polyethylene-water partitioning", "setting": "PCB compilation", "scale": "relative to: maximum over minimum K", "quantity": "literature range factor", "value": 1.2}
{"SMILES": "COc1cc2c(Oc3ccc4[nH]c(C)cc4c3F)ccnc2cc1OCC1(N)CC1", "system": "paediatric recurrent refractory sarcoma", "setting": "8 mg", "quantity": "grade 1 or 2 Tinnitus", "value": "0%"}
{"SMILES": "CC(C)CC(=O)OC[C@H]1O[C@@](C#N)(c2ccc3c(N)ncnn23)[C@H](O)[C@@H]1O", "assay": "plasma protein binding", "system": "rat plasma", "setting": "9 µM", "quantity": "unbound fraction", "value": 0.0817}
{"SMILES": "C[C@@H]1NC(=O)[C@H](CCCCNC(=O)CO/N=C/C(=O)NCCCC[C@@H]2NC(=O)[C@@H](Cc3ccccc3)NC(=O)[C@H](CC(=O)O)NC(=O)CNC(=O)[C@H](CCCNC(=N)N)NC2=O)NC(=O)CNC(=O)[C@@H]2CCCN2C(=O)[C@H](CCCCNC(=O)CO/N=C/C(=O)NCCCC[C@@H]2NC(=O)[C@@H](Cc3ccccc3)NC(=O)[C@H](CC(=O)O)NC(=O)CNC(=O)[C@H](CCCNC(=N)N)NC2=O)NC(=O)[C@H](CCCCNC(=O)CN2CCCNCCNCCCNCC2)NC(=O)[C@H](CCCCNC(=O)CO/N=C/C(=O)NCCCC[C@@H]2NC(=O)[C@@H](Cc3ccccc3)NC(=O)[C@H](CC(=O)O)NC(=O)CNC(=O)[C@H](CCCNC(=N)N)NC2=O)NC(=O)CNC(=O)[C@@H]2CCCN2C(=O)[C@H](CCCCNC(=O)CO/N=C/C(=O)NCCCC[C@@H]2NC(=O)[C@@H](Cc3ccccc3)NC(=O)[C@H](CC(=O)O)NC(=O)CNC(=O)[C@H](CCCNC(=N)N)NC2=O)NC1=O [copper-64 labelled]", "system": "normal mice, pancreas", "setting": "intravenous, 0.74 MBq, 24 h post-injection", "quantity": "tissue uptake", "value": "0.42 ± 0.06 %ID/g"}
{"SMILES": "c1ccc2c(c1)ccc1cc3c(ccc4ccccc43)cc12", "system": "fresh water", "setting": "12 (unit not given), 20 °C, SSP sampler, 100 µm", "quantity": "log K(PDMS-water)", "value": "5.07 ± 0.21"}
{"SMILES": "COc1cc(C2C3=C(COC3=O)N(CCO)c3cc4c(cc32)CCC4)cc(OC)c1OC (centres unmarked)", "system": "female Sprague-Dawley rats", "setting": "intraperitoneal, 200 mg/kg, 72 h, single dose, mean", "quantity": "body weight", "value": "215 g"}
{"SMILES": "O=C(NCCCNc1nc(Nc2cccc(NC(=O)N3CCCC3)c2)ncc1I)c1cccs1", "system": "Capryol 90", "setting": "24 h, 37 °C", "quantity": "solubility", "value": "930 ± 50 µg/mL"}
{"SMILES": "CN1CCN(c2ccc(Nc3nccc(-c4cccc(C#N)c4)n3)cc2C(F)(F)F)CC1", "system": "zebrafish embryos", "setting": "50 µM, 5 d", "quantity": "toxicity", "value": "0%"}
{"SMILES": "N=C(N)NCCC[C@@H](NC(=O)[C@@H](N)Cc1ccccc1)C(=O)N[C@@H](Cc1ccccc1)C(=O)N[C@@H](CCCCN)C(N)=O", "system": "early Huntington's disease patients, plasma", "setting": "subcutaneous, 25 mg daily, day 7, median", "quantity": "AUC(0-inf)", "value": "5270 ng·h/mL"}
{"SMILES": "C1=Cc2nc1cc1ccc([n-]1)c(-c1ccccc1)c1nc(cc3ccc([n-]3)c2-c2ccccc2)C=C1.CC(=O)[O-].[Mn+3]", "assay": "LC-MS/MS", "system": "Sprague-Dawley rat, plasma", "setting": "oral gavage, dose not given, 60 min, individual rat Rat1", "quantity": "plasma concentration", "value": "38 ng/mL"}
{"SMILES": "Clc1ccc(Cl)c(-c2cc(Cl)ccc2Cl)c1", "system": "Sprague Dawley rat, thymus", "setting": "intraperitoneal, 100 mg/kg, 3 weeks", "scale": "relative to: vehicle", "quantity": "relative organ weight", "value": "no effect"}
{"SMILES": "Cc1cc(C)c(CNC(=O)c2cc(Cl)c3c(c2C)O[C@@](C)([C@H]2CC[C@H](N(C)C)CC2)O3)c(=O)[nH]1", "system": "relapsed/refractory NHL patients", "setting": "dose not given, trial, safety set, treatment-related TEAE grade 5", "quantity": "incidence of atrial fibrillation", "value": "0%"}
{"SMILES": "CO[C@H]1C[C@@H]2CC[C@@H](C)[C@@](O)(O2)C(=O)C(=O)N2CCCC[C@H]2C(=O)O[C@H]([C@H](C)C[C@@H]2CC[C@@H](OC(=O)NCCOCCOCCOCCOCCOCCOCCOCCOCCC(=O)N3CCc4cc(Cn5nc(-c6ccc7oc(N)nc7c6)c6c(N)ncnc65)ccc4C3)[C@H](OC)C2)C[C@@H](O)[C@H](C)/C=C(\\C)[C@@H](O)[C@@H](OC)C(=O)[C@H](C)C[C@H](C)/C=C/C=C/C=C/1C", "assay": "phase 1 dose escalation, measured: pneumonia", "system": "advanced solid tumour patients", "setting": "intravenous, 8 mg weekly, grade ≥3", "quantity": "dose-reducing adverse events", "value": "0%"}
{"SMILES": "Clc1ccc(Cl)c(-c2cc(Cl)ccc2Cl)c1", "system": "PDMS-water partitioning", "setting": "PCB compilation", "scale": "relative to: maximum over minimum K", "quantity": "literature range factor", "value": 3}
{"SMILES": "C[C@]1(CO)Cc2ncn(-c3ccc(C#N)c(Cl)c3)c2C(=O)O1", "system": "healthy humans", "setting": "10 mg, fasted", "quantity": "drug-related Dizziness incidence", "value": "0%"}
{"SMILES": "Nc1nc(N)c2nc(-c3ccccc3)c(N)nc2n1", "target or system": "Plasmodium falciparum", "system": "7G8", "quantity": "IC50", "value": "12600 nM"}
{"SMILES": "CC(C)(C)C1CCN(C(=O)n2ncc(C(O)(c3ccccc3)c3ccccc3)n2)CC1", "target or system": "Cholinesterase (BCHE, Homo sapiens, UniProt P06276)", "assay": "inhibitor", "quantity": "IC50", "value": "1180 ± 200 nM"}
{"SMILES": "CN1CC[C@@H](c2c(O)cc(O)c3c(=O)cc(-c4ccc(C(F)(F)F)cc4Cl)oc23)[C@@H]1CO", "assay": "measured: Nausea", "system": "relapsed or refractory haematological malignancies", "setting": "oral, dose not given, all grades", "quantity": "adverse event incidence", "value": "25%"}
{"SMILES": "N.N.[Cl][Pt][Cl]", "system": "mouse xenograft model", "setting": "dose not given, day 2", "quantity": "body weight", "value": "24 g and 25 g and 26 g"}
{"SMILES": "CC(C)C[C@@H]1NC(=O)CNC(=O)[C@H](CC(N)=O)NC(=O)[C@H](CCCNC(=N)N)NC(=O)[C@H]([C@@H](C)O)NC(=O)[C@@H]2CSSC[C@@H]3NC(=O)[C@H]([C@@H](C)O)NC(=O)CNC(=O)CNC(=O)[C@H](C(C)C)NC(=O)[C@@H]4CSSC[C@H](NC(=O)[C@H]([C@@H](C)O)NC(=O)[C@H](CSSC[C@H](NC(=O)[C@H](C(C)C)NC(=O)[C@@H]5CCCN5C1=O)C(=O)NCC(=O)N[C@@H](CCC(=O)O)C(=O)N[C@@H]([C@@H](C)O)C(=O)N4)NC(=O)CNC(=O)[C@@H]1CCCN1C(=O)[C@H]([C@@H](C)O)NC(=O)[C@H](CC(N)=O)NC3=O)C(=O)N[C@@H](CO)C(=O)N[C@@H](CCCCN)C(=O)N1CCC[C@H]1C(=O)N[C@@H](C(C)C)C(=O)N2", "assay": "HPLC", "system": "water", "setting": "180 µM, 14 days, 37 °C, deamidation stability", "quantity": "remaining peptide", "value": "96.9 ± 0.6%"}
{"SMILES": "COc1cccc(Oc2ccccc2NC(=O)CNC(=O)c2cccc3ccccc23)c1", "system": "esterase-deficient SCID mice, male, blood", "setting": "oral, 40 mg/kg/day, 14 days, toxicity study", "scale": "relative to: white cells", "quantity": "eosinophils", "value": "1.6% and 0%"}
{"SMILES": "CC[C@H](C)[C@@H]1NC(=O)[C@@H]2CSSC[C@H](NC(=O)[C@H](CCCNC(=N)N)NC(=O)[C@@H]3CSSC[C@H](NC1=O)C(=O)N[C@@H]([C@@H](C)O)C(=O)N[C@@H](CCCNC(=N)N)C(=O)NCC(=O)N[C@@H](Cc1ccccc1)C(=O)N3)C(=O)N[C@@H](CC(C)C)C(=O)N[C@H]1CSSC[C@H](NC(=O)[C@H](C(C)C)NC(=O)CNC(=O)[C@H](CCCNC(=N)N)NC(=O)[C@H](CCCNC(=N)N)NC1=O)C(=O)N[C@@H](CCCNC(=N)N)C(=O)N2", "system": "Sprague-Dawley rats, male, lung", "setting": "10 mg/kg", "scale": "direction not given", "quantity": "mixed vein vasculitis score", "value": "2 to 3"}
{"note": "Repeated from above:"}
{"SMILES": "Clc1ccc(Cl)c(-c2cc(Cl)ccc2Cl)c1", "system": "PDMS-water partitioning", "setting": "PCB compilation", "scale": "relative to: maximum over minimum K", "quantity": "literature range factor", "value": 3}
{"SMILES": "C[C@]1(CO)Cc2ncn(-c3ccc(C#N)c(Cl)c3)c2C(=O)O1", "system": "healthy humans", "setting": "10 mg, fasted", "quantity": "drug-related Dizziness incidence", "value": "0%"}
{"SMILES": "Nc1nc(N)c2nc(-c3ccccc3)c(N)nc2n1", "target or system": "Plasmodium falciparum", "system": "7G8", "quantity": "IC50", "value": "12600 nM"}
{"SMILES": "CC(C)(C)C1CCN(C(=O)n2ncc(C(O)(c3ccccc3)c3ccccc3)n2)CC1", "target or system": "Cholinesterase (BCHE, Homo sapiens, UniProt P06276)", "assay": "inhibitor", "quantity": "IC50", "value": "1180 ± 200 nM"}
{"SMILES": "CN1CC[C@@H](c2c(O)cc(O)c3c(=O)cc(-c4ccc(C(F)(F)F)cc4Cl)oc23)[C@@H]1CO", "assay": "measured: Nausea", "system": "relapsed or refractory haematological malignancies", "setting": "oral, dose not given, all grades", "quantity": "adverse event incidence", "value": "25%"}
